Measured values of several laboratories.
Lines come from different studies, so protocols differ. Values joined by “and” are separate records of one study, mostly repeats; a detail may differ.
MAPK1: Mitogen-activated protein kinase 1 (MAPK1, Homo sapiens, UniProt P28482)

The remaining binding of CNC1C[S+]2CC[S+]3CC[S+](C1)[Ru-4]321([N]=C=S)[n]2c3ccc(OC)cc3c3c4c(c5cc(F)c[n+]1c5c32)C(=O)NC4=O (stereo not shown) is reported as 91% (MAPK1; KinomeScan; 0.1 µM; relative to: untreated).
The inhibition of COc1cc(-n2cc3cc(F)cc(C(N)=O)c3n2)cc(Cl)c1C1CC(O)(CCO)Cc2ccccc21 (stereo not shown) is reported as 2.25% (MAPK1; enzyme activity, inhibitor; 10 µM).
With COC(=O)[C@@]1(C)C=C(C(=O)Nc2cccc(C(=O)Nc3ccc(Nc4nccc(-c5cccnc5)n4)c(C)c3)c2)C(=O)CC1 the remaining activity was 0.913 (MAPK1; kinase activity, inhibitor; 0.1829 µM, unit not given; relative to: no inhibitor).
For Cc1cnc2nc1Nc1cccc(c1)COC/C=C/COCc1cc(ccc1OCCN1CCOCC1)N2, the remaining binding was 99% (MAPK1; binding, competition with immobilised ligand; 0.1 µM).
Nc1ncc(-c2cc(-c3cnn(CC(F)(F)F)c3)ncc2F)nc1C(=O)NC1CNCC(F)C1 (stereo not shown) has a remaining activity of 89.2% (MAPK1; enzyme activity; 1 µM; relative to: DMSO control).
With COCC12C(=O)NC3C4(C(OC)CC1O)C1CC5(O)C(OC)C(O)C(OC(C)=O)(C1C5OC(=O)c1ccccc1)C3(O)C(OC)C24 (stereo not shown) the remaining activity was 90% and 105% (MAPK1; kinase activity, inhibitor, ProQinase kinase profiling; 25 µM; relative to: control).
For CS(=O)(=O)Nc1cccc(-c2csc3cnc(Nc4ccc(N5CCN(CCCCCOc6cccc7c6C(=O)N(C6CCC(=O)NC6=O)C7=O)CC5)cc4)nc23)c1 (stereo not shown), the inhibition was -16.9% (MAPK1; probe labelling, inhibitor, KiNativ chemoproteomics; MOLT-4; 1 µM).
CCn1cc(C(=O)O)c(=O)c2c(N)c(F)c(NC3CCCCC3)cc21 has an inhibition of -15.2% (MAPK1; kinase activity; 0.1 µM, together with: ATP at Km).
Nc1ncc2c(n1)-c1c([nH]c3ccc(C4=CCOCC4)cc13)CCC2 gave a remaining binding of 94% (MAPK1; binding, competition with immobilised ligand; 1 µM).
The remaining binding of COc1cc(Nc2nccc(-c3cnn4nc(OC)ccc34)n2)cc(C(F)(F)F)c1 is reported as 84% (MAPK1; binding, competition with immobilised ligand; 1 µM).
The remaining binding of CCN1CCN(Cc2ccc(C(=O)Nc3ccc(C)c(NCc4cnc5[nH]ccc5c4OC)c3)cc2C(F)(F)F)CC1 is reported as 100% (MAPK1; binding, competition with immobilised ligand; 1 µM).
The inhibition of C=CC(=O)Nc1cc(-c2nn(C3CCN(CCNC(=O)[C@H](C)CCC45CC6CC(CC(C6)C4)C5)CC3)c3ncnc(N)c23)ccc1Oc1ccccc1 is reported as 2.8% (MAPK1; inhibitor, KiNativ profiling; biochemical; 2 µM).
For C=CC(=O)N1CCc2ccc(-n3c(=O)ccc4cnc5ccc(-c6cnn(C)c6)cc5c43)cc21, the remaining binding was 100% (MAPK1; KINOMEscan; 1 µM; relative to: DMSO control).
Cc1ccc(-c2c(/C=C(\C#N)C(=O)NC(C)C)n(CCCO)c3ncnc(N)c23)cc1 has a remaining binding of 95% (MAPK1; binding, competition with immobilised ligand; 1 µM).
Cc1cccc(-c2ccc3nc(NC(=O)C4CCOCC4)nn3c2)c1 has a remaining activity of 90% (MAPK1; enzyme activity, Dundee kinase panel; 10 µM).
C#CCOC(=O)[C@]1(C)C=C(C(=O)OC(C)(C)C)C(=O)CC1: “normalized kinase activity” 0.942 and 0.653 and 0.758 (MAPK1; enzyme activity, D-SENSOR; 4.938 µM, single replicate).
For C=CC(=O)N1Cc2nc(-c3cc(-c4cc(Cl)cnc4Cl)c(F)cc3F)n(-c3ccncn3)c2C1, the inhibition was 7% (MAPK1; cell-free assay, inhibitor; 1 µM).
The remaining activity of Cc1cccc(-c2ccc3nc(NC(=O)C4CCCCC4)nn3c2)c1 is reported as 75% (MAPK1; enzyme activity, Dundee kinase panel; 10 µM).
Cc1cccc(O[C@H]2CCC[C@@H](C(C)CNCc3ccncc3)C2)c1 (relative stereo) gave an inhibition of -1% (MAPK1; enzyme activity, inhibitor; 1 µM).
For C=C1CC2(C(=O)OC)C=C(C(=O)OC(C)(C)C)C(=O)C1C2 (stereo not shown), “relative protein interaction” read 0.732 (Mitogen-activated protein kinase 1, with MKK1 (MAPK1, Homo sapiens, UniProt P28482); MKK1-ERK2 interaction, NanoBiT luminescence; HEK293T; concentration not given; relative to: untreated).
NC(=O)C[C@H]1CCc2sc3ncnc(O[C@H]4CC[C@H](N5CCOCC5)CC4)c3c21 has an inhibition of 4% (MAPK1; enzyme activity, inhibitor; 10 µM).
With C=CC(=O)Nc1cccc(-c2cnc3[nH]cc(C(=O)NC(C)(C)C)c3n2)c1 the inhibition was 2% (MAPK1; enzyme activity, inhibitor; 0.1 µM).
